Measurements of several laboratories.
Numbered parts are unrelated; each lists some results of a single study. Changes are numbered by the printed parent chain.
Sequence of UniProt Q9C5X0 (whole entry, looked up): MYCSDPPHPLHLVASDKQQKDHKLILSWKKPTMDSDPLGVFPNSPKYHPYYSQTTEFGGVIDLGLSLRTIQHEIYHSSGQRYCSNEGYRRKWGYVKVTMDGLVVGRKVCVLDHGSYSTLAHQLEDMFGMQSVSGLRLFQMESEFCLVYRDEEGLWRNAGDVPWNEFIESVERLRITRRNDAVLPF
Sequence of UniProt Q8RYC8 (whole entry, looked up): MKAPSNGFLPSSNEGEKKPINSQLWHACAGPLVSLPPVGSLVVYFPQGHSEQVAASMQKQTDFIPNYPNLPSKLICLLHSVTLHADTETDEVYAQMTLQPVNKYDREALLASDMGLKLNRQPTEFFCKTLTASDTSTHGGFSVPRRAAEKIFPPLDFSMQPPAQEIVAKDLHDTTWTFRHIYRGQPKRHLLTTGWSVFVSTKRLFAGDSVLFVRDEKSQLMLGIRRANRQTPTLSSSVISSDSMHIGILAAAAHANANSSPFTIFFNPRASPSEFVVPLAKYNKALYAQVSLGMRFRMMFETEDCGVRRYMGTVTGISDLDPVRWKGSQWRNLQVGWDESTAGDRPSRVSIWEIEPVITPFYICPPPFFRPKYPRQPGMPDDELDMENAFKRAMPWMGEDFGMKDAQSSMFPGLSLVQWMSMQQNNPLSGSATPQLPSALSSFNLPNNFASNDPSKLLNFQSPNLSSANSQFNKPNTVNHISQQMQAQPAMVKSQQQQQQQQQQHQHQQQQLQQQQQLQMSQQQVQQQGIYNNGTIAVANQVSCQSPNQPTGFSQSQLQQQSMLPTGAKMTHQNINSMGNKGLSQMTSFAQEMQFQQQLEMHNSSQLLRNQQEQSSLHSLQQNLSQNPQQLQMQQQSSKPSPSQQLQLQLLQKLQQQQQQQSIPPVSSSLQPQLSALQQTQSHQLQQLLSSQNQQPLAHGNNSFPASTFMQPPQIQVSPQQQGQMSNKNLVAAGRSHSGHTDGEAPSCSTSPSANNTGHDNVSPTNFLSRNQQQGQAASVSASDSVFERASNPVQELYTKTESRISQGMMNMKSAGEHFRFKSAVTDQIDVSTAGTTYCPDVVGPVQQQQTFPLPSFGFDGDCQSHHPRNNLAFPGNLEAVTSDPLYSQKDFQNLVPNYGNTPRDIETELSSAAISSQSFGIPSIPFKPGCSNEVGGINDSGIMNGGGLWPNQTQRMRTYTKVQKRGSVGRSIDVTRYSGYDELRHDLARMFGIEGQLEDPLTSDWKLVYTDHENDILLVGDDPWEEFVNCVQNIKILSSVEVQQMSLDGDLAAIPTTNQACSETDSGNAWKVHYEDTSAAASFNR
Sequence of UniProt Q8RYC6 (whole entry, looked up): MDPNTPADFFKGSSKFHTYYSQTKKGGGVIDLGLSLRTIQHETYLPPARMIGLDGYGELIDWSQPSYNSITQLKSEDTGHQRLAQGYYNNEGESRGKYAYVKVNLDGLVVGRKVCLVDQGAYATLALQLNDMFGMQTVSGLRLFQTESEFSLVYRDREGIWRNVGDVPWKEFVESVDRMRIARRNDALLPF
Sequence of UniProt Q9XED8 (whole entry, looked up): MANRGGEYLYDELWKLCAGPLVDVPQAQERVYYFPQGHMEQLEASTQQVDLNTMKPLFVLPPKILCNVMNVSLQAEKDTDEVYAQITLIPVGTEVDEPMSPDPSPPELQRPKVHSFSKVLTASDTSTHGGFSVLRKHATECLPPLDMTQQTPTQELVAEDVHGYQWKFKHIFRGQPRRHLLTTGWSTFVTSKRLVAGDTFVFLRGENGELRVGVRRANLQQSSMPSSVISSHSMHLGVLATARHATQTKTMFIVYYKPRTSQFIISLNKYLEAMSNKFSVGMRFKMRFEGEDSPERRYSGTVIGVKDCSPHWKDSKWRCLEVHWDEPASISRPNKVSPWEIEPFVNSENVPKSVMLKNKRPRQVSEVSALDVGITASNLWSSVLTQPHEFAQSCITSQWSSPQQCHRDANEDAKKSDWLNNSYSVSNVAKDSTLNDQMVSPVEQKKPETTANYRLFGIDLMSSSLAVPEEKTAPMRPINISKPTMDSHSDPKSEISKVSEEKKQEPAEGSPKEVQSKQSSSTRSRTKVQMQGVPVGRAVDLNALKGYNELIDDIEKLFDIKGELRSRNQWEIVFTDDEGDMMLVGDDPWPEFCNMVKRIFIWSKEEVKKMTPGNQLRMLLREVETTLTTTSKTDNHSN

Block 1 — technique: RNA Bind-n-Seq; form: RNA; medium: in vitro; tested at: 200 nM; notes: whole 134-nt RNA, ends assumed; with: 150 mM KCl; baseline: input library; direction: higher = stronger binding
Target: Fragile X messenger ribonucleoprotein 1, C-terminal low-complexity region (Fmr1, Mus musculus, UniProt P35922)
Constant ends, left off below: GGGAGUUCUACAGUCCGACGAUC … UGGAAUUCUCGGGUGUCAAGG
| Strand | log2 enrichment |
| --- | --- |
| UUAUAAUUGAUGAUCAUCCUGAAGUAACAGUAAUUGAAGAUCCCCAGUCAAAUUUGAAUGAUGAUGGUUUUACUGAAGUGGUAUCCAAAA | -0.67 |
| AAGUCCUGUGCUACACAUCGUAUGUACCGAAUCGGGUUUUGGGUUUUGGGUUUUGGGAAAGUAUUAUGUUACGCCGUUCGGAUCUGCACU | 0.765 |
| ACCAUGCAGGUGGGCAUCUUUGGGAAGUGGGGCAAGGGGGGGAUAGAGAGGGGGGUAACACUUUGGGAACAGGUGGUCCCAGGUCGUUUC | 0.453 |
| ACCAUGCAGGUGGGCAAAUUUGGGAAGUGGGGCAAGGGGGGGAUAGGGAGGGGGGUAACACUUUGGGAACAGGUGGUCCCAGGUCGUUUC | 0.478 |
| UUUAGACAGAAACAAGAAGCAACAGAGUCCCUUAAGUGCCAAGAGGAACUUCGAGAGCGCCUUCAUGAGGAGUCCAGGGCCAGAGAACAG | -0.831 |
| UCAAGUCCUGUGCUACACAUCGUAUGUACCGAAUCGGGAGGGUUUGGGAAAGGGAAAGUAUUAUGUUACGCCGUUCGGAUCUGCACUUCC | 1.22 |
| CCUGUGCUACACAUCGUAUGUACCGAAUCGGGGUGGGGUUUUUUUGGGGUUUUUUUGGGGAAAGUAUUAUGUUACGCCGUUCGGAUCUGC | 0.558 |
| CAAGUCCUGUGCUACACAUCGUAUGUACCGAAUCGGGAAAGGGAGGGUUUUUGGGAAAGUAUUAUGUUACGCCGUUCGGAUCUGCACUUC | 0.81 |

Block 2 — Sequence: B1 (IAA31); technique: two-hybrid; direction: higher = firmer interaction
B1: IAA31 (Arabidopsis thaliana, UniProt Q8H174); chain MEVSNSCSSFSSSSVDSTKPSPSESSVNLSLSLTFPSTSPQREARQDWPPIKSRLRDTLKGRRLLRRGDDTSLFVKVYMEGVPIGRKLDLCVFSGYESLLENLSHMFDTSIICGNRDRKHHVLTYEDKDGDWMMVGDIPWDMFLETVRRLKITRPERY
| partner | notes | baseline | positive tests |
| --- | --- | --- | --- |
| IAA32 (Arabidopsis thaliana, UniProt Q8RYC6) | – | out of 4 tests | 1 |
| IAA34 (Arabidopsis thaliana, UniProt Q9C5X0) | – | out of 4 tests | 4 |
| ARF9 519-638 (Arabidopsis thaliana, UniProt Q9XED8) | weak activation fusion | out of 2 tests | 0 |
| ARF19 948-1086 (Arabidopsis thaliana, UniProt Q8RYC8) | – | out of 2 tests | 1 |

Single results of other studies — P1: viral docking peptide; KKAKRRLFTISDS
| Substance | tested on | test | test system | setting | how to read | quantity | result |
| --- | --- | --- | --- | --- | --- | --- | --- |
| ERH (Homo sapiens, UniProt P84090) | BCLAF1 (Homo sapiens, UniProt Q9NYF8) | cross-linking MS | – | hits only | – | interaction screen | cross-linked |
| P1 S13A | CCNB1, cyclin fold, Cln2 fusion (human) | yeast growth competition, sequencing | yeast | weak parent motif | baseline: not given, higher = stronger binding | normalised enrichment score | 0.697 |
| CCT3 (Homo sapiens, UniProt P49368) | PDCL3 (Homo sapiens, UniProt Q9H2J4) | cross-linking MS | – | hits only | – | interaction screen | cross-linked |
| PSMA7 (Homo sapiens, UniProt O14818) | PSMA4 (Homo sapiens, UniProt P25789) | cross-linking MS | – | hits only | – | interaction screen | cross-linked |
| RFC1 (Homo sapiens, UniProt P35251) | RFC3 (Homo sapiens, UniProt P40938) | cross-linking MS | – | hits only | – | interaction screen | cross-linked |

Some of these lines once more (block 2):
| partner | notes | baseline | positive tests |
| --- | --- | --- | --- |
| IAA32 (Arabidopsis thaliana, UniProt Q8RYC6) | – | out of 4 tests | 1 |
| IAA34 (Arabidopsis thaliana, UniProt Q9C5X0) | – | out of 4 tests | 4 |
